Results from different studies.
Each numbered part is a random draw from the data of one study; scales do not carry over between parts. Several values in a cell are separate wells, animals, samples, runs or records.
Chain of UniProt O75460 (whole entry, looked up): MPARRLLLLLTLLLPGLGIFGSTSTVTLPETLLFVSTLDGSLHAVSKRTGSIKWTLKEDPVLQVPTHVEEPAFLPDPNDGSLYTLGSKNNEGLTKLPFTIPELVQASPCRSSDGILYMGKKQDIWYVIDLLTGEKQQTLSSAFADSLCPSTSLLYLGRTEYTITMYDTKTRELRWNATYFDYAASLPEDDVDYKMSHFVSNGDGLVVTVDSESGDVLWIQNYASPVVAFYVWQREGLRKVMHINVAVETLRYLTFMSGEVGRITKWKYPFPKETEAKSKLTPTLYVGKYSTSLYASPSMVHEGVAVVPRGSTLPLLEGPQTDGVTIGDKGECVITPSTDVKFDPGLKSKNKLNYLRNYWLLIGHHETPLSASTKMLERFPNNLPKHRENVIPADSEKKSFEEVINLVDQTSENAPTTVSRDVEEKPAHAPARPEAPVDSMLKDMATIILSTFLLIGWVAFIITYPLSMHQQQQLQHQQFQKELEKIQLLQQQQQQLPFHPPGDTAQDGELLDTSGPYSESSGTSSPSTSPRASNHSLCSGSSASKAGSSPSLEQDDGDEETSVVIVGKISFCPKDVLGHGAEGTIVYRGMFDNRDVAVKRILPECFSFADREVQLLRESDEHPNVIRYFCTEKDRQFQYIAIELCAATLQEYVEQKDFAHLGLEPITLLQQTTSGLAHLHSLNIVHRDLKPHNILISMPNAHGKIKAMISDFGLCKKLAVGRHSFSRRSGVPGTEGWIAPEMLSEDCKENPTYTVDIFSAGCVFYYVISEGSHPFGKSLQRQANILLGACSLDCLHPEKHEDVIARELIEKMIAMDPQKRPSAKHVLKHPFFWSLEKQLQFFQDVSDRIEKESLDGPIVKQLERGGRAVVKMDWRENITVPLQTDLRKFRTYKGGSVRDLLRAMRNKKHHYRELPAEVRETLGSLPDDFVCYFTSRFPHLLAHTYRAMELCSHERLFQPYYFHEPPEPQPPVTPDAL
Chain of UniProt Q9NRP7 (whole entry, looked up): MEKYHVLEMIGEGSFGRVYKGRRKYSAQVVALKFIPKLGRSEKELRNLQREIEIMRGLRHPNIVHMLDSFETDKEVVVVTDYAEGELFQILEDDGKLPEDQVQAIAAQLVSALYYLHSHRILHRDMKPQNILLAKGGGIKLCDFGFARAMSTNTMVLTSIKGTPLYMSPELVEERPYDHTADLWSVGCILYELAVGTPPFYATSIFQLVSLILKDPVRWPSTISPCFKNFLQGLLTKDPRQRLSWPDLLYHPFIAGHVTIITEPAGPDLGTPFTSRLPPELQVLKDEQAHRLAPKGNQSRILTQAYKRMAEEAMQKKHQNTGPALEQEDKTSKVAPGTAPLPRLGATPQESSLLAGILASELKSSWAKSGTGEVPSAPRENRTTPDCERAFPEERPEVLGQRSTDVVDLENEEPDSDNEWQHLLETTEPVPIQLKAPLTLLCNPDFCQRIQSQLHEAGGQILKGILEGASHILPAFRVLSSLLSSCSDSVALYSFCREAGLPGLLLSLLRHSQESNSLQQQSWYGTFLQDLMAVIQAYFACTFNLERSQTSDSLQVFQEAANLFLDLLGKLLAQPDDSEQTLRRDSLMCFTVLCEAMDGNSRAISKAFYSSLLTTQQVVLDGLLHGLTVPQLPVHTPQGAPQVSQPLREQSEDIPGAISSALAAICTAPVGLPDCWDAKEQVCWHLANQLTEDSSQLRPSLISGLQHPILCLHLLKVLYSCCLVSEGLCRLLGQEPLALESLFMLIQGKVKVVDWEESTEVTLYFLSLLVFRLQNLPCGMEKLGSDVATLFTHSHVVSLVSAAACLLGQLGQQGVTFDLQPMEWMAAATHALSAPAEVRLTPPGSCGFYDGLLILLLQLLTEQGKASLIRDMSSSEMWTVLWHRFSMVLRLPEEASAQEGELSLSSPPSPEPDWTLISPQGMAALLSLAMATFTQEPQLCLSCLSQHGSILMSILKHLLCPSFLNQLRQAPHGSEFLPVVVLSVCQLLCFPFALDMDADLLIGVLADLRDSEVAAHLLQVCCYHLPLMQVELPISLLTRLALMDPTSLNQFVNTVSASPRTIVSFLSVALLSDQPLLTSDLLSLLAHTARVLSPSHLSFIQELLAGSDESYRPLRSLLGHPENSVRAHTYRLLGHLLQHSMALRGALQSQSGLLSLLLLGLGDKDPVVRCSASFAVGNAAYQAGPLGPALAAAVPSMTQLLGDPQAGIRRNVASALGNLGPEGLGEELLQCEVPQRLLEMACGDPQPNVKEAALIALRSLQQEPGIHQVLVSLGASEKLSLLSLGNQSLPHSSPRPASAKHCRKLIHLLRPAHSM
Chain of UniProt P49841 (whole entry, looked up): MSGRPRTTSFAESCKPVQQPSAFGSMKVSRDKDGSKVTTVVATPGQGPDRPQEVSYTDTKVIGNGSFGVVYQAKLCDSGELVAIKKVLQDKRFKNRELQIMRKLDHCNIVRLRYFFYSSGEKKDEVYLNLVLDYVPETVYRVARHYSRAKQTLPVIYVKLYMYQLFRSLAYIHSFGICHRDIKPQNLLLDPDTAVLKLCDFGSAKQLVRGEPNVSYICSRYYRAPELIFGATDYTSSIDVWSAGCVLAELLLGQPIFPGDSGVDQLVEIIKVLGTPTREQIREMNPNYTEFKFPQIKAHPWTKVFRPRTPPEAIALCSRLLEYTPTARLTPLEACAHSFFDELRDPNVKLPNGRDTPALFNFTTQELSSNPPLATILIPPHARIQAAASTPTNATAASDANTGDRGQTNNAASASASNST
Chain of UniProt P45985 (whole entry, looked up): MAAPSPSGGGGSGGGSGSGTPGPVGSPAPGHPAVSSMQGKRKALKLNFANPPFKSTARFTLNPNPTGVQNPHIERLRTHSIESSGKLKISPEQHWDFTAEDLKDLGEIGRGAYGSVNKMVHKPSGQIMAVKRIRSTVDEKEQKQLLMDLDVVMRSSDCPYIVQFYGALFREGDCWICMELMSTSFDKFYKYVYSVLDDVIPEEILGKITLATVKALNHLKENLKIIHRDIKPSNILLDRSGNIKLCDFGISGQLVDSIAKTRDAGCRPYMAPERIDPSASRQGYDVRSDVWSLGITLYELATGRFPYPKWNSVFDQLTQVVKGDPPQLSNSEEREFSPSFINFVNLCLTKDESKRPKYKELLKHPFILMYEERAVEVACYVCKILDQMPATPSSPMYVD
Chain of UniProt O75716 (whole entry, looked up): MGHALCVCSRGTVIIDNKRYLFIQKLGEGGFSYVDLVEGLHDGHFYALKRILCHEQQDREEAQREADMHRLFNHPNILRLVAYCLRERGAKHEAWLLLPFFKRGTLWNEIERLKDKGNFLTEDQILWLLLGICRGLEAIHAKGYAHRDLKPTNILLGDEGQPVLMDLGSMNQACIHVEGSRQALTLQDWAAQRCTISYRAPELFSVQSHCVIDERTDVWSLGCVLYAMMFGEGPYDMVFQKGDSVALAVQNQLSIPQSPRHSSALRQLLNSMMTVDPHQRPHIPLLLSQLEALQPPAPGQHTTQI

Sample 1
Target: Mitogen-activated protein kinase kinase kinase 10 (MAP3K10, Homo sapiens, UniProt Q02779)
Chain of UniProt Q02779 (whole entry, looked up): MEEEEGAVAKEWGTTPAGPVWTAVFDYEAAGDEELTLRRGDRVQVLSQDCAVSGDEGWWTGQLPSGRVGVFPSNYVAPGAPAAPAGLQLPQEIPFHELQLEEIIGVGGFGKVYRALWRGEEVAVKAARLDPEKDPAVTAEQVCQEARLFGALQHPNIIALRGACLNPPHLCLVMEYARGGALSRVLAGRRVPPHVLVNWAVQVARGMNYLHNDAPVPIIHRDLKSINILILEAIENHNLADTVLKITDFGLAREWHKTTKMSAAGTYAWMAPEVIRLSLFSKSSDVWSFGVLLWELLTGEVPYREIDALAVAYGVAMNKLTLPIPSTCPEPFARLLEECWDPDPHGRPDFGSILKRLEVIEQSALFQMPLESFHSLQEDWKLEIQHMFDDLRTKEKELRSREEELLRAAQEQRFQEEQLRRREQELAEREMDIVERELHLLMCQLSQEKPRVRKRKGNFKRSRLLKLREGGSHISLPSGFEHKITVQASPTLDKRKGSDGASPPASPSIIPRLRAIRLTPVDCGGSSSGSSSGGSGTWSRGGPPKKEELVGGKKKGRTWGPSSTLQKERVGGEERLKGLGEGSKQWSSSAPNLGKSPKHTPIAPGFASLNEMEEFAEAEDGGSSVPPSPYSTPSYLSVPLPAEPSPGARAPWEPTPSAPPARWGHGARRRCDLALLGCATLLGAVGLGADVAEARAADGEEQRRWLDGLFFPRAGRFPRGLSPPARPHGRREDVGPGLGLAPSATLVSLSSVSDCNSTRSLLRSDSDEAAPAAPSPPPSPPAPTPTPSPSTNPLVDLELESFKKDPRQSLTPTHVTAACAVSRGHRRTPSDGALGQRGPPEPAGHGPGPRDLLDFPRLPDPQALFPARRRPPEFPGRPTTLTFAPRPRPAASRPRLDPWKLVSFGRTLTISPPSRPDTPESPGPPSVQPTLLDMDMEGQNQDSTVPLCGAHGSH
Effect on: enzyme activity
Action: inhibitor
Tested at: 0.5 µM
Reference: control
O=C(NC(NC(=S)Nc1ccc(F)c([N+](=O)[O-])c1)C(Cl)(Cl)Cl)C(c1ccccc1)c1ccccc1 (stereo not drawn) has a remaining activity of 98.9%.
The remaining activity of Cc1cc2ncc(-c3ccccc3)nc2cc1C is reported as 97.8%.
For O=C1C(Cl)=C(N2C(=O)CCC2=O)C(=O)c2ccccc21, the remaining activity was 92.8%.
With CCOc1nc(NC(=O)Cc2cc(OC)ccc2OC)cc(N)c1C#N the remaining activity was 91.3%.
The remaining activity of O=C1c2ccccc2-c2n[nH]c3cccc1c23 is reported as 86.7%.
O=c1cc(-c2cccc3c2Sc2ccccc2S3)oc(N2CCOCC2)c1 gave a remaining activity of 95.9%.
For Cc1cn(-c2cc(NC(=O)c3ccc(C)c(Nc4nccc(-c5cccnc5)n4)c3)cc(C(F)(F)F)c2)cn1, the remaining activity was 110%.
For CCN(CC)CCNC(=O)c1c(C)[nH]c(/C=C2\C(=O)Nc3ccc(Cl)cc32)c1C, the remaining activity was 82.8%.
For CN(C)C[C@H]1CCn2c(c(C3=C(c4cn(C)c5ccccc45)C(=O)NC3=O)c3ccccc32)C1, the remaining activity was 102%.
With c1ccc(-c2[nH]ncc2-c2ccnc3ccccc23)nc1 the remaining activity was 104%.
c1ccc(-c2cnc(Nc3ccc(OCCN4CCCC4)cc3)s2)cc1 gave a remaining activity of 95.7%.
N#C/C(=C\c1ccc(O)c(O)c1)C(=O)NCc1ccccc1 gave a remaining activity of 100%.
For Nc1cccc(-c2cc3c(Oc4cccc(O)c4)ncnc3[nH]2)c1, the remaining activity was 79.2%.
Ic1cccc(CSc2nnc(-c3ccncc3)o2)c1 gave a remaining activity of 102%.
The remaining activity of N#Cc1c(NC(=O)c2cccc3ccccc23)sc2c1CCCC2 is reported as 85.4%.
For COc1cc2ncnc(Nc3ccc(O)c(Br)c3)c2cc1OC, the remaining activity was 98.2%.
The remaining activity of CCN(CC)C(=O)c1ccc(Nc2nc(OCC3CCCCC3)c3[nH]cnc3n2)cc1 is reported as 15.2%.
Cc1nc2cc3nc(-c4cccs4)cnc3cc2n1C has a remaining activity of 101%.
With COc1cc2c(cc1OC)-c1[nH]nc(Nc3cccc(F)c3)c1C2 the remaining activity was 87.1%.
For Cn1nc2c3c(cccc31)C(=O)c1ccccc1-2, the remaining activity was 91.4%.
COc1cc2ncnc(Nc3cccc(Cl)c3)c2cc1OC has a remaining activity of 101%.
With O=C(Nc1cccc(Nc2nccc(Nc3cccc(C(F)(F)F)c3)n2)c1)C1CC1 the remaining activity was 96.4%.

Sample 2
SMILES: COc1cc(-c2cn(C3CCc4c(F)cccc4N(CC(F)(F)F)C3=O)nn2)ccc1-n1cnc(C)c1 (stereo not drawn)
Method: competition with immobilised ligand
Tested at: 1 µM
It gave 100% for remaining binding (MET (Homo sapiens, UniProt P08581, Y1235D); cell-free assay).
For TAOK3 (Homo sapiens, UniProt Q9H2K8); cell-free assay: remaining binding read 100%.
It gave 100% for remaining binding (STK10 (Homo sapiens, UniProt O94804); cell-free assay).
The remaining binding was 83% (EGFR (Homo sapiens, UniProt P00533, T790M); cell-free assay).
EPHA7 (Homo sapiens, UniProt Q15375); cell-free assay — remaining binding: 100%.
It gave 93% for remaining binding (AKT2 (Homo sapiens, UniProt P31751); cell-free assay).
It gave 100% for remaining binding (DYRK1B (Homo sapiens, UniProt Q9Y463); cell-free assay).
It gave 100% for remaining binding (CSNK1D (Homo sapiens, UniProt P48730); cell-free assay).
FLT3 (Homo sapiens, UniProt P36888, D835H); cell-free assay — remaining binding: 98%.
The remaining binding was 84% (CDK17 (Homo sapiens, UniProt Q00537); cell-free assay).
SRPK1 (Homo sapiens, UniProt Q96SB4); cell-free assay — remaining binding: 100%.
The remaining binding was 100% (GSK3B (Homo sapiens, UniProt P49841); cell-free assay).
For Ribosomal protein S6 kinase alpha-6, C-terminal kinase domain (RPS6KA6, Homo sapiens, UniProt Q9UK32); cell-free assay: remaining binding read 100%.
The remaining binding was 90% (MAPK11 (Homo sapiens, UniProt Q15759); cell-free assay).
The remaining binding was 100% (TXK (Homo sapiens, UniProt P42681); binding).
It gave 94% for remaining binding (SBK1 (Homo sapiens, UniProt Q52WX2); cell-free assay).
FLT3 (Homo sapiens, UniProt P36888, D835V/ITD); cell-free assay — remaining binding: 100%.
The remaining binding was 100% (CSNK2A2 (Homo sapiens, UniProt P19784); cell-free assay).
It gave 100% for remaining binding (PRKD3 (Homo sapiens, UniProt O94806); cell-free assay).
For EGFR (Homo sapiens, UniProt P00533, del746-750); cell-free assay: remaining binding read 94%.
It gave 100% for remaining binding (ERN1 (Homo sapiens, UniProt O75460); cell-free assay).
It gave 100% for remaining binding (STK16 (Homo sapiens, UniProt O75716); cell-free assay).
The remaining binding was 100% (MARK4 (Homo sapiens, UniProt Q96L34); cell-free assay).
The remaining binding was 93% (MAP2K4 (Homo sapiens, UniProt P45985); cell-free assay).
The remaining binding was 100% (STK36 (Homo sapiens, UniProt Q9NRP7); cell-free assay).

Sample 3
Compound: CN1CCN(C(=O)c2ccc(NC(=O)Nc3ccc(N(C)c4ccnc(Nc5ccc(CS(C)(=O)=O)cc5)n4)cc3)cc2)CC1
Method: competitive binding panel
Tested at: 1 µM
Reference: vehicle
For TNIK (Homo sapiens, UniProt Q9UKE5): remaining binding read 23%.
The remaining binding was 25% (ERN1 (Homo sapiens, UniProt O75460)).
PIP4K2B (Homo sapiens, UniProt P78356); refers to: PIP5K2B — remaining binding: 17%.
For VRK2 (Homo sapiens, UniProt Q86Y07): remaining binding read 93%.
For EPHB2 (Homo sapiens, UniProt P29323): remaining binding read 76%.
MKNK2 (Homo sapiens, UniProt Q9HBH9) — remaining binding: 4.2%.

Sample 4
Cell line: mouse MPNST tumor cells
Method: high-content immunofluorescence imaging
Refers to: nuclear SOX9
Tested at: 10 µM
Time: 12 h
Setting: mean of 2 replicates
Reference: DMSO control
Reading: higher = more nuclear SOX9
COc1ccc(-c2cnc(NCc3cccc(OC)c3)n2C)cc1 — result for “nuclear SOX9 intensity”: 115 % of DMSO.
Nc1nc(OCC2CCCCC2)c2[nH]cnc2n1 — result for “nuclear SOX9 intensity”: 87.6 % of DMSO.
For CC(C)C[C@H](NC(=O)[C@@H](O)[C@H](N)Cc1ccccc1)C(=O)O, “nuclear SOX9 intensity” read 98.7 % of DMSO.
CCCn1c(=O)[nH]c2nc(-c3ccc(S(=O)(=O)O)cc3)[nH]c2c1=O — result for “nuclear SOX9 intensity”: 104 % of DMSO.
Under “nuclear SOX9 intensity”, COc1ccccc1OCC(O)COC(N)=O (stereo not drawn) is recorded as 105 % of DMSO and 98.1 % of DMSO.
CO[C@@]1(NC(=O)CSCC#N)C(=O)N2C(C(=O)O)=C(CSc3nnnn3C)CS[C@@H]21 — result for “nuclear SOX9 intensity”: 109 % of DMSO.
CCC(=O)c1cc(-c2ccc(Cl)cc2)n(-c2ccc(S(N)(=O)=O)cc2)c1C: “nuclear SOX9 intensity” 103 % of DMSO.

A few entries again (sample 3):
For VRK2 (Homo sapiens, UniProt Q86Y07): remaining binding read 93%.
MKNK2 (Homo sapiens, UniProt Q9HBH9) — remaining binding: 4.2%.
For EPHB2 (Homo sapiens, UniProt P29323): remaining binding read 76%.
The remaining binding was 25% (ERN1 (Homo sapiens, UniProt O75460)).
For TNIK (Homo sapiens, UniProt Q9UKE5): remaining binding read 23%.
